Published values collected from several papers.
Each numbered part is a random draw from the data of one study; scales do not carry over between parts.

Block 1 — technique: RNA Bind-n-Seq; form: RNA; sample: in vitro; concentration: not given; relative to: input RNA pool; direction: higher = stronger binding
Target: RING finger protein unkempt homolog, zinc fingers 1-6, GST-SBP tag (UNK, Homo sapiens, UniProt Q9C0B0, residues 30-357)
Setting: RNA with constant flanks, human and mouse sites, ends assumed
Target sequence (chain): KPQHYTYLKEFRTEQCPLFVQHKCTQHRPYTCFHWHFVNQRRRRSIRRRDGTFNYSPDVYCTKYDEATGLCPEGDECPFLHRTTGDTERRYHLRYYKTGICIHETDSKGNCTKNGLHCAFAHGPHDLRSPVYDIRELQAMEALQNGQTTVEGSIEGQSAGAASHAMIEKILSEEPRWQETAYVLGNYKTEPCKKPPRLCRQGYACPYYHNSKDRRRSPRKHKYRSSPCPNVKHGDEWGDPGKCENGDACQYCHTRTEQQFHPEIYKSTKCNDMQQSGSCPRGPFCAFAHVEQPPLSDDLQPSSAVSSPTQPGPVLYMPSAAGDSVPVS
Sequence	bound/input enrichment
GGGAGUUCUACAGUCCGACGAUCCCAGUUCUCAUUUCAGCUAUGAAGAUUUUUGUAACAACUAAAAACUCAAAAAACCAAGGCAUAGAGGAAGCUUUAAAAAAUCGCAAUUUUACUGUAGAAAAAAUGAGUGCUGAAAUUAAUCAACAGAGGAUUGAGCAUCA	0.209 ratio
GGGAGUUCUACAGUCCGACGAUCAAGUUGAAUCAUGUAGCUGCUGGUCUCGUUUCACCAAGUCUGAAAUCGGAUACCUCUAGUAAAGAAAUAGAGGAAGCUAUGAAAAGAGUACGAGAAGCACAGUCCCUAAUUUCUGCUGCUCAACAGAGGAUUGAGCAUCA	0.0705 ratio
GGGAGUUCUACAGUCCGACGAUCUGUCUGACUUGCUGCUCCAGGGAUGUCAUAGUUAAAGUUGACCAGAUCUGUCACAAAAAUAGCAUCAAGUUCUUUACAGGAGAUGUUUUUGGCUACCAUGGAUACACAUUUGCCAAUCUACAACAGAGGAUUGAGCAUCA	0.172 ratio
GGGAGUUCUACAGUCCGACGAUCGAAGACUUUGGUCCAGAAAAGAAAACCAGUGAUGUUGAAACCAUGAGUUCUCAAUCAGCUCUAGCUUUGGAUGAAAGGAAAUUGGGAGGAGAUGUAUCUCCAACACAAAUAGACGUCAGUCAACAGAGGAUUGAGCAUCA	0.167 ratio
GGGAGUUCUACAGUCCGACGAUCUUUUCUUUUUCUUUUUUCUUUCUUUUUUUUUUUUUUUUUUUUUUUGAGUUGUUGUUUGUUUUUAGAUCCACAGUACAUGAGAAUCCUUUUUUGACAAGCCUUGGAAAGCUGACACUGUCUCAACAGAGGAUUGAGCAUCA	2.64 ratio
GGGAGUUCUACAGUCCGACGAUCGCACAUGCCACUGUCACCAAAACAAACAACUACCACUUUCCAAAUUUCAUUCAGAACCAUUUUAGUGUUUUCCUAUUCCCUACCCCUCCCACUACUUUCAAUGAUGAAAUACCCUAAGUUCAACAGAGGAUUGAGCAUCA	7.03 ratio
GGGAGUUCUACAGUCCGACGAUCGCAGAUGAAGUAGAGUUUACUGUGGUUCCUGAUAUGCUCUCUGCCCAAAGAAAUCAUGCUAUUAGGAUUAAAAAACUUCCCAAGGGCACGGUUUCAUUCCAUUCCCAUUCAGAUCAUCGUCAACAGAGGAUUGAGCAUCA	0.308 ratio
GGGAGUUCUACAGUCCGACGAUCUAUUACUUCUUUUUUUAAAAAAACUACACUUGGGCUCCUUUUUUGUGCUCGACUUUUCCACCUUUUUCCCUCCUUCCUGCGCUGCUGCUUUUUUGAUCUCUUCGACUAAAAAUUUUUUAUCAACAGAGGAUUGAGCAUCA	2.82 ratio

Block 2 — technique: EMSA with sequencing; form: double-stranded DNA, one strand shown; sample: in vitro; concentration: 10 and 20 nM; relative to: negative control set to 0; direction: higher = stronger binding
Target: Hepatocyte nuclear factor 3-alpha (Foxa1, Mus musculus, UniProt P35582, residues 1-468, full length assumed)
UniProt P35582, sequence (whole entry, looked up): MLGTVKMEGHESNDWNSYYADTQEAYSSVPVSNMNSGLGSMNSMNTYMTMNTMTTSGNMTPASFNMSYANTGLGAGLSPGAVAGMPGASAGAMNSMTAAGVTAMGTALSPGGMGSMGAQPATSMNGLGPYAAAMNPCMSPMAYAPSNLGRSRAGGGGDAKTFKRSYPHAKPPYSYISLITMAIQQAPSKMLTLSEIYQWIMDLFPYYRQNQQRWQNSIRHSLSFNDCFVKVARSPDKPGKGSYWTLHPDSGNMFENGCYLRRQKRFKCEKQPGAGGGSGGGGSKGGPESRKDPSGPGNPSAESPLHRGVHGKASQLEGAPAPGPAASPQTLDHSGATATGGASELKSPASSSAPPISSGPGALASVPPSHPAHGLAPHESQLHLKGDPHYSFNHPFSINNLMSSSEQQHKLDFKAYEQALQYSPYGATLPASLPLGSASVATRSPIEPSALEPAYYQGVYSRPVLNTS
Setting: whole designed probe, mean of two concentrations, ends assumed
Sequence	normalised bound fraction
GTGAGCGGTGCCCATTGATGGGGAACTACAGACTCACATTCACCTTGCGCCACACTACCTTTACGGTATAGTGAACTCCTTTCAGTCCCTTTCTTTCACAATAGTCTGCATAATCTAAGTAATCTGGAGACTTGTGTCTTTCACTGTTCCTAGACACTTCGCAACTAATATATTGCTTGCATATAGACACTAGATATCTCTGAATAAATCAACAGAAGATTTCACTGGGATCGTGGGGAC	0.089 ratio
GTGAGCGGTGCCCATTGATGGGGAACGATATTTCCTTCTTGATATCCCTGTAGTCCCTCAAATTGTCTATATTCTGAGTCATTTCTAAAATAAAAGGCCTCAATGCCAAGAGTTGTACTAAATTGCTTTATAACCTGTTTGGGTAAATTTACTTCAGAGGTATCATTTTCTGGAGATACTTTCTCAGGTCCATATTTTAACTCCAAATCTGAAAGAAATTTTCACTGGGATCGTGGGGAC	-0.0254 ratio
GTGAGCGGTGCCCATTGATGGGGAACTCTCCCCTGCAGGAGTTTGGACTAATCAGGTCACTACACCCTGACACAGCAGTCTCCAGTCTCTACCACTCATTGTTTGCAACATGACGTAATGTCATCTGACCACAGAGAAGTTAGCAACAGGGAAGGGAAAACACTTTAATCTCAAGGTCATCCCCAGGGTTCAGCAGGACATATATCCTATATCGAATCATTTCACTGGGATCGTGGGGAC	-0.0108 ratio
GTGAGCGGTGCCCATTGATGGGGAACTTCTGGACGCTGTGAAGAAAACAAAACAATGGACTGTCTTTTAATCGTCCTTAAATAGCTCAGTAAAATTTAAACAATGCTTGCATTCTCTGTGTAATCTCAGTGACTGATGCCGAGGCCCCTAGGACTGCTTGGAGCTAATGGGATTAATAAGAATGCCTGAGGGTAACATCTATCACAAATTAATGTTTCCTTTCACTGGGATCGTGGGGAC	0.0601 ratio
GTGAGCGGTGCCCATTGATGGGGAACATCTAGTTCCAGTCTTAGCTTGGCAATTTCTTCCCGCAACATGCTGTTTTCACGCAAGAGATCTTCTTCTTTCTTATGACTAAGAGAAAGCTAAGTAATCTAAGGGAACTTTTAGTTAGCACTCAATAGAATGACATATCATGATTTCTTCTAAAATCAAAGAATGACATTTATATTTGTATAATGAAATAATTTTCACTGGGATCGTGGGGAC	0.213 ratio

Block 3 — technique: RNA Bind-n-Seq; form: RNA; sample: in vitro; concentration: 1 µM; setting: whole 134-nt RNA, ends assumed; together with: 150 mM KCl; relative to: input library; direction: higher = stronger binding
Target: Ras GTPase-activating protein-binding protein 1, C-terminal RGG region (G3BP1, Homo sapiens, UniProt Q13283)
UniProt Q13283, sequence (whole entry, looked up): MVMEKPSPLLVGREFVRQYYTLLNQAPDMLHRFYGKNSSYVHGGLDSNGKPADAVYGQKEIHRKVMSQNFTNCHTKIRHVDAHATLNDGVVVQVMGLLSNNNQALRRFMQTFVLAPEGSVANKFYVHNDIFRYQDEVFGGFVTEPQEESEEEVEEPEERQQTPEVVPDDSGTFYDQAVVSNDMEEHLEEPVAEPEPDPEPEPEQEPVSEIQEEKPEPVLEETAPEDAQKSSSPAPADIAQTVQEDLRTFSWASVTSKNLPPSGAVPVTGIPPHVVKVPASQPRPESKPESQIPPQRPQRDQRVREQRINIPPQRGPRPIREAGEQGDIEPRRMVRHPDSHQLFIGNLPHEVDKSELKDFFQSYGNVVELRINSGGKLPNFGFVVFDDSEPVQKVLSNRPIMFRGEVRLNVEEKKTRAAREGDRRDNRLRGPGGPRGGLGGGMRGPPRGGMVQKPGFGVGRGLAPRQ
Sequence	log2 enrichment
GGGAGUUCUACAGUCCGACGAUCCCUGUGCUACACAUCGUAUGUACCGAAUCGGGGAAAAAGGGGUUUUUGGGGUUUUUGGGGAAAGUAUUAUGUUACGCCGUUCGGAUCUGCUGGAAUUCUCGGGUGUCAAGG	0.475
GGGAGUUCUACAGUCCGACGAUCUAACUUUAGAGGAGGAUCUGAUGGCUAUGGCAGUGGACGUGGAUUUGGGGAUGGCUAUAAUGGGUAUGGAGGAGGACCUGGAGGUGGCAAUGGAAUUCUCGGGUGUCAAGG	-1.41
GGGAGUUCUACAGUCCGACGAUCUGCAGAAGCAUCUUCAGUUGGAGAGCCAUUGCCUCUUGCUGUGAAAUAUUUGGGAAUCUUCAGAAACCAUGAAGAAUAACCUGCUAAAGGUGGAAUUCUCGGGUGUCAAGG	-1.68
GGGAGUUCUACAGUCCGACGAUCUGGGAGGUGGAUUUUGUUUAUUUUUUUAGCUCAUUUCCAGAGGUGGGAAUUUUUUUUUAAUAUGUGUCAUGAAUAAAGUUGUUUUUGAAAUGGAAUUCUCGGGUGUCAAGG	2.81
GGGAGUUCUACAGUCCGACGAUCUUCCUCAGGGUAGAACUGGAUGACUCAGACGUGUUCCAUGGUGAACCUGAACCUGAGGAGCUGCCUGGAGGUAAGGGCCCUGAACUGUCCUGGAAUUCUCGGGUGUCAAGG	-2.56
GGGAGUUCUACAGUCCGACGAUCGUCCUGUGCUACACAUCGUAUGUACCGAAUCGGUUUUUUGGUUUUUUGGGGUUUUUUGGAAAGUAUUAUGUUACGCCGUUCGGAUCUGCAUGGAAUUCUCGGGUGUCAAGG	-1.4
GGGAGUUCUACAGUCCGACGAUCACCAUGCAGGUGGGCAUCUUUGGGAAGUGGGGCAAGGGGGGGAUAGGGAGGGGGGUAACACUCUGGGAACAGGUGGUCCCAGGUCGUUUCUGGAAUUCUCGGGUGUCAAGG	1.93
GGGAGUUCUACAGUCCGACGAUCUCAAGUCCUGUGCUACACAUCGUAUGUACCGAAUCGGGGCCGGCCGGGGCCGGGGAAAGUAUUAUGUUACGCCGUUCGGAUCUGCACUUCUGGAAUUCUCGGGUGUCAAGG	-2.02
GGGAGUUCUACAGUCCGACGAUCCUCAAGUCCUGUGCUACACAUCGUAUGUACCGAAUCGGUUUGGUUUGGUUUGGAAAGUAUUAUGUUACGCCGUUCGGAUCUGCACUUCCAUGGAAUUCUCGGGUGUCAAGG	-1.28

Block 4 — technique: RNA Bind-n-Seq; form: RNA; sample: in vitro; concentration: 365 nM; relative to: no-protein control; direction: higher = stronger binding
Target: RNA binding protein fox-1 homolog 2, RRM domain, GST-SBP tag (RBFOX2, Homo sapiens, UniProt O43251-10, residues 100-194)
Setting: natural RNA segment, single round, ends assumed
Construct (chain): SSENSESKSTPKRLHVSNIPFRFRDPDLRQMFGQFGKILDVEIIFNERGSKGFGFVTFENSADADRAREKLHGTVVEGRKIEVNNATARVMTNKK
Sequence	RBNS enrichment (R)
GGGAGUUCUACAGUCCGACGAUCGGUGUCUGUAGGUGGACCCGGUCUCCCACAGGUGACAUCAACCUGAGGGUGGCGUCUUUAGAGACAGGCACAUGGGCAGCCCUGUUCCCUUCGCCUCUACUGCGAGGCCUUGGAAUUCUCGGGUGCCAA	0.256
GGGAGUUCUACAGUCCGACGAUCAACAUUUUAAAGACUAAUAUUGCUGAUACUUGAAAAAUCAAUCUCAACUAGAUUUUAAGUAGCAUCCAUAGACUUACUCUUUUUGAGCUUGAAGGACUAAAUUAUUAAUUUGGAAUUCUCGGGUGCCAA	0.521
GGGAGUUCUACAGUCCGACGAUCCCUGCCGAGCGGCUGCUGGAGUCUGGAGCCAUCGCAUUGCGGGUGUAGCAGCGCAUCAGGCUUGAGAUGCCAGGGGUUUGAUACAGGCGUGGAAUCACUUUCCAGGCCAGUGGAAUUCUCGGGUGCCAA	0.33
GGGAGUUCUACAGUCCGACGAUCUGUGUGGGUUAGGGCUUUUUUCGUUGCAUGUGAUGGUUCUGUGGACAUAUGAUCCCCACAAACUGUGGGAGUGAUUGGCCAGGCCUUGUUUUGUUUGUUUGUUUGUUUGUUGGAAUUCUCGGGUGCCAA	52.1
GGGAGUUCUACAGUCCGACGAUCUGCAAGCAGCACUUCAGAAGAAACCAGCAUCAAAGCAGCCUUCCCUGACCCCACCUAUCGUCUUCUGCUAAGGGACAGUACAGAAGCUGCUGUCUGGGCUGUAAAGUCUGUGGAAUUCUCGGGUGCCAA	0.523
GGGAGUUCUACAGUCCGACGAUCCACGUGUCACACUGUUUGGAGGGGGAAGGGCAUUGCCAGCCACUGUCUGCCGAGUCGUCUGUGUAAAAGCCUGUGCUUAGUCUUCUCUGGAAAGAACUGAGGCCAGACGAUGGAAUUCUCGGGUGCCAA	0.988
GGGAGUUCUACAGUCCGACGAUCCUUCACAGCACCUUCCCAGUGGGUAGAAAGCCACACACCAGGAUGUGGGUCAACCAUGAAGAUGUGGCAUUGCAGACGGGGGAACAUGUGGAUGCAUGGCUAUCGCCCUGUGGAAUUCUCGGGUGCCAA	1.7
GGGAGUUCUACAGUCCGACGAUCAAAAUUGAUAAUACCUCAUUCUGUAUUACAAUAUGAUUUUAUUUUGCCAAAGGCAAGACACCUAUAGUUGAGCUGUAUUUUGGGGGAUUGGGUGAGGAAGGACUUCUGAUUGGAAUUCUCGGGUGCCAA	0.464

For quick reference, copied from above (block 3):
Sequence	log2 enrichment
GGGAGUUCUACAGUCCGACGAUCUGCAGAAGCAUCUUCAGUUGGAGAGCCAUUGCCUCUUGCUGUGAAAUAUUUGGGAAUCUUCAGAAACCAUGAAGAAUAACCUGCUAAAGGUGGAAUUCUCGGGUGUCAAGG	-1.68
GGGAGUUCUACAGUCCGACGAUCCCUGUGCUACACAUCGUAUGUACCGAAUCGGGGAAAAAGGGGUUUUUGGGGUUUUUGGGGAAAGUAUUAUGUUACGCCGUUCGGAUCUGCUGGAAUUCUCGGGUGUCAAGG	0.475
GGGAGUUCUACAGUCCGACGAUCUGGGAGGUGGAUUUUGUUUAUUUUUUUAGCUCAUUUCCAGAGGUGGGAAUUUUUUUUUAAUAUGUGUCAUGAAUAAAGUUGUUUUUGAAAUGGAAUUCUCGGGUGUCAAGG	2.81
